Measurements gathered from unrelated publications.
Each numbered part is a random draw from the data of one study; scales do not carry over between parts. Positions count from the first letter of the parent shown.

Series 1
Target: Interferon regulatory factor 3, full length, phosphomimetic (IRF3, Homo sapiens, UniProt Q14653, residues 1-427, S386D/S396D/S398D/S402D/T404D/S405D)
Sequence of UniProt Q14653 (whole entry, unmodified, looked up): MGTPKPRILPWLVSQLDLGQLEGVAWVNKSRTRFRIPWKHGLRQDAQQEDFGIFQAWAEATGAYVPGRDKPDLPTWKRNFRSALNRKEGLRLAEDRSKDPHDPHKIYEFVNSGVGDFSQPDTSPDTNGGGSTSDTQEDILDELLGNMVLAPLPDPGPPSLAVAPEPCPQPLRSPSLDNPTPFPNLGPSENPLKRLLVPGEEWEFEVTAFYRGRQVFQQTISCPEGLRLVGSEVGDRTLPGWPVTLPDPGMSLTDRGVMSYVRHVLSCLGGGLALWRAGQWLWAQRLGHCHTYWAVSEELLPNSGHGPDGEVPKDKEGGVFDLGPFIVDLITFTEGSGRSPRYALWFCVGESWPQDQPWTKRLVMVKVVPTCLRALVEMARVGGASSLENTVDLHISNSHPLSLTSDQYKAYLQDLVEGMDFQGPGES
Method: protein-binding microarray
Molecule type: double-stranded DNA, one strand shown
Matrix: in vitro
Tested at: 2540 nM top
Setting: 60-bp whole probe
With: salmon DNA 0.4 mg/ml
Reference: random background probes
Reading: higher = stronger binding
Endpoint: fitted relative affinity
Shared flanks, not repeated: GCCTAGCAC … GTCTTGATTCGCTTGACGCTGCTG
GCCGATCTCAGTCTCGAGACGTGCTAG: 2.33 z-score
TTAGGTCTCCTACTGCTTGAGTGCTAG: 0.928 z-score
TTAGGTATCGGTTTGGGTTAGTGCTAG: 4.52 z-score
TTAGGTCTCTGTATCGGTTAGTGCTAG: 1.52 z-score
TTAGGTTTCGGACTGGGTTTGTGCTAG: 4.09 z-score
TTAGAACTGGGGACTGAATTAGTGCTA: -0.647 z-score
GACGATTTCTGGACTGGAGACGTGCTA: 0.841 z-score
TTAGGTATCCTCTTCCTTTAGTGCTAG: 2.39 z-score
TTAGGTTTCGGGCTTCGGTTAGTGCTA: 3.22 z-score
TTAGAACTGAGTTTGGATTAGTGCTAG: -0.359 z-score
GCAGATTGGGTTTCAGGGCTGTGCTAG: 0.404 z-score
GACTATCTCAGTCTCGAGACGTGCTAG: 0.671 z-score
GACGTTCTCGGACTGGGGACGTGCTAG: 0.594 z-score
TTTGCTTTCTTTATGCACTCGTGCTAG: 2.61 z-score
TCAACTTTCACTTCTCCACTGTGCTAG: 5.83 z-score
TTAGGTATCGGCCTCGGTTAGTGCTAG: 0.315 z-score
GACGGTTTGGGACTGGGGACGTGCTAG: -0.111 z-score
TTAGAACTGGTGTATCGATTAGTGCTA: -0.212 z-score
TCAGATTGGTTGAACATACTGTGCTAG: 0.183 z-score

Series 2
Target: RING finger protein unkempt homolog, zinc fingers 1-6, SBP tag (UNK, Homo sapiens, UniProt Q9C0B0, residues 30-357)
Sequence of UniProt Q9C0B0 (30-357, looked up): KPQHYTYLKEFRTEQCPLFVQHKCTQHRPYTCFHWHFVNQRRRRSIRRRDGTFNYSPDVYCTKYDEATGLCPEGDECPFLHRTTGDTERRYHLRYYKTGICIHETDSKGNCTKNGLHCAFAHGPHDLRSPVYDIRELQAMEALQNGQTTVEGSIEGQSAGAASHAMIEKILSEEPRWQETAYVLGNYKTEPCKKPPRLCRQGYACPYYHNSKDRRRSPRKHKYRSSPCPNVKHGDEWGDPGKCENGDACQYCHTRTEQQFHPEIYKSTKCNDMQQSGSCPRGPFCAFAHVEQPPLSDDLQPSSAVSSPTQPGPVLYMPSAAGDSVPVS
Method: RNA Bind-n-Seq
Molecule type: RNA
Matrix: in vitro
Tested at: 100 nM
Setting: RNA with constant flanks, vertebrate orthologous sites, ends assumed
Reference: input RNA pool
Reading: higher = stronger binding
Endpoint: bound/input enrichment
Shared flanks, not repeated: GGGAGUUCUACAGUCCGACGAUC … CAACAGAGGAUUGAGCAUCA
ACGCUUCGACAUCAAGCUGACAAUCAGCUCGUGACCUCAGCCGCCAUGAGUGCUCGUUCCGAGAUCAAUAAAAUGUAGAGAGAAUAUAAGUUCAGAUAAACGCCACUAGUCUUUGAACAU: 0.225 ratio
UUUUAUGGAUCAGGUUUGUAAAUGUGUACUAAAAAAAUCAGAGUUUAUUUAUAAGUGGAGGAGUUUAUUUAAAAAGGUCACUGAUAUCAUGGUAUGCAUUAAUUCCAUUUGUUCCUAUUG: 0.667 ratio
AAGAUGGUGGUUGUACAUUAUUUCAUUUAGAAAAUAUAAAAAUUCAUUUUGUUUUGAAGCUAGGUGUUAAACUGGAAUAGCUCUUAUACCCCAGAGAAUGGGGCAAUUGUGCCCUUCCCU: 2.12 ratio
UCUCUACAGUUUUAAAGACACUCCCUUAUAAGGCACUUUGGCUCUUCAUAUAUUUAACCGUAUUUACAUAUCUAUUUUUUAUAAAUAGCAGUAUAAAUUCAAAGGGGACUCCAACCUUUA: 0.325 ratio
AUCCCUCAGUGACAGUAUGCCAUCUGUAGCAGACUCCCACUCUAGUCAUUUUUCUGAAUUUAGUUGUUCUGACCUAGAAAGCAUGAAAACUUCUUGUAGCCAUGGUUCCAAUGAUUAUCA: 3.28 ratio
CACUGCCAUGGUUGAUGGCUCUGAGCUGAAAAAAGUGCGAUCCAAUUCGCGCAUUUACCAUCGCUACUUUCUCCUUGACGCCGACAUGCAGUCUUUGAGAUGGGAGCCUUCAAAGAAGGA: 0.182 ratio
UCCAGCCUCAGCUGGCUGUGUCACAGCAUUCCUUACACAGCUAUUUAACAAGUACAAGUGGAGUUAACUUUCAGGAUACAUCUAGGCACUCAGCAUUAUCCUGCAGUCCAGUUGGAGAUG: 0.189 ratio
GAAGUUCCCCAUUGUCACUGAGAACCACCAAAUUUGACUUUCACAUUUGGUCUCAGAAUUUAGGUUCCUGCCCUGUUGUUUUUCUUUCUUUUUCUUAAAACAAACAGUUUUCAGAAGUUC: 0.262 ratio

Series 3
Target: HLF, bZIP domain (human)
Method: DHFR protein complementation
Matrix: yeast
Setting: single substitutions, most at no-binding floor
Reference: wild-type JUN-FOS pair
Reading: higher = stronger binding
Endpoint: binding fitness
Parent: JUN, bZIP domain (human); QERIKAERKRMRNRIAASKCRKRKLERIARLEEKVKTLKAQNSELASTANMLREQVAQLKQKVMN; partner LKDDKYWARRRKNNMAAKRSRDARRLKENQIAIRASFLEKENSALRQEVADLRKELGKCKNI
S47C: -1.4 natural log
S47P: -1.52 natural log
Q55H: -1.23 natural log
L31P: -1.47 natural log
S43D: -1.37 natural log
Q58P: -1.5 natural log
S47M: -1.31 natural log
L38N: -1.46 natural log
A49P: -1.51 natural log
K34C: -1.53 natural log
A46H: -1.44 natural log
A57H: -1.19 natural log
I28H: -1.44 natural log
K36T: -1.46 natural log
R30T: -1.47 natural log
R53T: -1.54 natural log
L31A: -1.49 natural log
E33G: -1.48 natural log
M51V: -1.41 natural log
E54C: -1.52 natural log
E33M: -1.3 natural log
E54V: -1.53 natural log
M51G: -1.45 natural log

Series 4
Target: RNA binding protein fox-1 homolog 2, RRM domain, GST-SBP tag (RBFOX2, Homo sapiens, UniProt O43251-10, residues 100-194)
Method: RNA Bind-n-Seq
Molecule type: RNA
Matrix: in vitro
Tested at: 365 nM
Setting: natural RNA segment, single round, ends assumed
Reference: no-protein control
Reading: higher = stronger binding
Endpoint: RBNS enrichment (R)
Shared flanks, not repeated: GGGAGUUCUACAGUCCGACGAUC … UGGAAUUCUCGGGUGCCAA
Target sequence (chain): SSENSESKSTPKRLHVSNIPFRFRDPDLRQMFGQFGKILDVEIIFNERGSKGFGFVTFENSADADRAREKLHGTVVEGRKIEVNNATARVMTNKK
CCCAGAUGCCUCCUCUGUCCUCAUUCUUCUCUCCCACACAAGCAGUCUUUUUCUACAGCCAGUAAGGCAGCUCUGUCGUGGUAGCAGAUGGUCCCAUUAUUCUAGGGUCU: 0.411
UGCUCCUUAAAAAUGAAACAGGAGAAAGCCUGGCAUUGUAUACCUGUUUUUGUUGCUCAGUAAUUCAGGUGGAAAUAUAUAACGCAAGUGGGUAGAGCGUCUGCCAGACU: 0.59
CCCUAAACCUCAGGGCCAAUAUGGUGCUUCUAUCUAUCUCGAGUUGAUUUUAUAUAAAGAUUUGUGGGGAAAUAUCUUUAUAUUAAAAGCAGGUUAUUGGAAUAGAAUCC: 0.82
AGAAUUGGAGAGCAGGCACAUCAACUGAUCUCAUUUCUAGAGAGCCCCUGACAAUCCUGAGGCUUCAUCAGGAGCUAGAGCCAUUUAACAUUUCCUCUUUCCAAGACCAA: 0.316
AAUCCAAAAGAAAUGUCAUUAACCAAUACUCCAAGUCCUUGAGUUUUGUUAUAUCUGAACUAGUUGAACUGUGACUGACAGGUAAUCCUAAUAUAUCCAAAUCCAACUGA: 0.363
ACACCCAUGGUUCAAAGUCUGGUGUUGACCCUAGAUAGCUAUGUGACUGUGGGUGGACCAUCUCCCCUCUCCGAGCUGUAGACAAAGGAGCUUAGACGCCACAUCAGGGU: 0.525
GGAGGUACUGUGAGGAAGAGCAGGCACCAGCAGCAGAAUGGGGAAUGGAGAGGUGGGCAGGGGUUCCAGCUUCCCUUUGAUUUUUUGCUGCAGACUCAUCCUUUUUAAAU: 0.501
AGACCAGUCAGCCAGUUAGUAGAAACCCUGACUCUACUAAGAAAAUACAAAAAUUAGCUGGGCAUGGUGGCAUGCGCCUGUAGUCUCAGCUACCUGGGAGGCUGAGGAAG: 1.55

Some of these lines once more (series 1):
TTAGGTTTCGGGCTTCGGTTAGTGCTA: 3.22 z-score
TTAGGTCTCCTACTGCTTGAGTGCTAG: 0.928 z-score
GACGATTTCTGGACTGGAGACGTGCTA: 0.841 z-score
TTAGGTATCGGTTTGGGTTAGTGCTAG: 4.52 z-score
GACGGTTTGGGACTGGGGACGTGCTAG: -0.111 z-score
GCCGATCTCAGTCTCGAGACGTGCTAG: 2.33 z-score
